# Experimental data gathered from unrelated publications.
# “And” joins repeats or separate records; there may be more than shown. ± gives the spread as reported.
# Sequence of UniProt Q8JUX6 (whole entry, looked up): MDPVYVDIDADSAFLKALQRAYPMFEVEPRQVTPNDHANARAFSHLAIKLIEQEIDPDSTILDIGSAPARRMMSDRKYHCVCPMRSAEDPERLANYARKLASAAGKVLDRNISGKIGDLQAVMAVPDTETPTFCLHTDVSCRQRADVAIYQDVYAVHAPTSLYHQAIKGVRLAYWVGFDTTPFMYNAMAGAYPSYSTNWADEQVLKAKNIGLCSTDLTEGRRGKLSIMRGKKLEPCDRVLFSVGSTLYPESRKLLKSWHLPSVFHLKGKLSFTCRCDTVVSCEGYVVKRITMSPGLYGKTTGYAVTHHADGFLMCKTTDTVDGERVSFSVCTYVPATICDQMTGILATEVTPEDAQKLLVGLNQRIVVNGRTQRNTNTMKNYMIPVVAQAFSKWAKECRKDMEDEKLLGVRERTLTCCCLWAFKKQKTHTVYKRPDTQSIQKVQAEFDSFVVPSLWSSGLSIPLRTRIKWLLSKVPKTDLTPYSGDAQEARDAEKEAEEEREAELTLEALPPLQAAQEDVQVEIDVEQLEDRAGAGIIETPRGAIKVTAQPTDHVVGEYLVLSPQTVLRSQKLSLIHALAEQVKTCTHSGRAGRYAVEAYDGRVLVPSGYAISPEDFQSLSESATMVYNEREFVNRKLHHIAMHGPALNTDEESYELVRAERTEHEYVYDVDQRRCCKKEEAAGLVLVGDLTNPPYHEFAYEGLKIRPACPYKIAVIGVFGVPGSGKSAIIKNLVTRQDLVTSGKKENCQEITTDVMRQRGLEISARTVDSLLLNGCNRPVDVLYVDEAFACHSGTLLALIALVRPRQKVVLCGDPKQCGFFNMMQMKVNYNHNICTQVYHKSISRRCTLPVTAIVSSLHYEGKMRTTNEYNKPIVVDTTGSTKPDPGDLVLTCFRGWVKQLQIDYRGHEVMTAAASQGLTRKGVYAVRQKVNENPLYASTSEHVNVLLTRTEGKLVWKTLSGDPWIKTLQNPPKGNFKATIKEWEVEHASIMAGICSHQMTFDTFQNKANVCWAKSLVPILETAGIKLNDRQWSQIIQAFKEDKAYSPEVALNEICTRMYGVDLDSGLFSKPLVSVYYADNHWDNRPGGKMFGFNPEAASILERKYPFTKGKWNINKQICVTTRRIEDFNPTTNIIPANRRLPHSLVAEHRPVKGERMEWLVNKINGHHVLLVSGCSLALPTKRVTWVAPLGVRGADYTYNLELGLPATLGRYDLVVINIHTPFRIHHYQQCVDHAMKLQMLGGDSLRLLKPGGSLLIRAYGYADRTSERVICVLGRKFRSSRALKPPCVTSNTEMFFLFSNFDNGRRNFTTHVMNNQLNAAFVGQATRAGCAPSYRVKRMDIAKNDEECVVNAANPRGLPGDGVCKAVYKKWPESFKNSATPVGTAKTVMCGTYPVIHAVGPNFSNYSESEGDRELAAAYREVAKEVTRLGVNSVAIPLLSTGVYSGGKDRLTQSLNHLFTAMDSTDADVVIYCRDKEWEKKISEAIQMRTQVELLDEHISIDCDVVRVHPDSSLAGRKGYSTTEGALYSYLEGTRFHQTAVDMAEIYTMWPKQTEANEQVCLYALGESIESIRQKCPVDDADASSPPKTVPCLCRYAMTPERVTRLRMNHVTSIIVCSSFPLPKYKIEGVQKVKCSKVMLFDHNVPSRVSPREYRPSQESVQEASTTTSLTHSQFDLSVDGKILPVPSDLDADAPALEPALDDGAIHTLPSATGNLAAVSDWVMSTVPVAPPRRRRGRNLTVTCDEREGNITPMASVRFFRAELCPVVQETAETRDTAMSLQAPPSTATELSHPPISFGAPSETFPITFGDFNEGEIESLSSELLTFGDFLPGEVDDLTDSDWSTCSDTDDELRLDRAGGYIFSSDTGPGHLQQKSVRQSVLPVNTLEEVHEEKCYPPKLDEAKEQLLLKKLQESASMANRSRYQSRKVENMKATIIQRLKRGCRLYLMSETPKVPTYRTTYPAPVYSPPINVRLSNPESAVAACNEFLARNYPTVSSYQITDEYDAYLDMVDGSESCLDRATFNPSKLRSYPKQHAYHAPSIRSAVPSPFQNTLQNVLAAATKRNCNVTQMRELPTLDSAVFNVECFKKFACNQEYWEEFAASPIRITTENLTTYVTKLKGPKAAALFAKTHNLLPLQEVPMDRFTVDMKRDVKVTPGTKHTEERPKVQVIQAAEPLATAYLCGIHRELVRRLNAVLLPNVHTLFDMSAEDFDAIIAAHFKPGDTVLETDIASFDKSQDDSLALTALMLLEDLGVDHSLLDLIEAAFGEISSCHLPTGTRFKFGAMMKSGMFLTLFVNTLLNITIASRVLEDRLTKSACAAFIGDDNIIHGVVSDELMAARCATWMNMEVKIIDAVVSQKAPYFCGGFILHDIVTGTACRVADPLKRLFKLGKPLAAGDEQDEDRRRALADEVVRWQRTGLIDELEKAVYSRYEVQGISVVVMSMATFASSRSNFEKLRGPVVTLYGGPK
# Sequence of UniProt Q5XXP4 (whole entry, looked up): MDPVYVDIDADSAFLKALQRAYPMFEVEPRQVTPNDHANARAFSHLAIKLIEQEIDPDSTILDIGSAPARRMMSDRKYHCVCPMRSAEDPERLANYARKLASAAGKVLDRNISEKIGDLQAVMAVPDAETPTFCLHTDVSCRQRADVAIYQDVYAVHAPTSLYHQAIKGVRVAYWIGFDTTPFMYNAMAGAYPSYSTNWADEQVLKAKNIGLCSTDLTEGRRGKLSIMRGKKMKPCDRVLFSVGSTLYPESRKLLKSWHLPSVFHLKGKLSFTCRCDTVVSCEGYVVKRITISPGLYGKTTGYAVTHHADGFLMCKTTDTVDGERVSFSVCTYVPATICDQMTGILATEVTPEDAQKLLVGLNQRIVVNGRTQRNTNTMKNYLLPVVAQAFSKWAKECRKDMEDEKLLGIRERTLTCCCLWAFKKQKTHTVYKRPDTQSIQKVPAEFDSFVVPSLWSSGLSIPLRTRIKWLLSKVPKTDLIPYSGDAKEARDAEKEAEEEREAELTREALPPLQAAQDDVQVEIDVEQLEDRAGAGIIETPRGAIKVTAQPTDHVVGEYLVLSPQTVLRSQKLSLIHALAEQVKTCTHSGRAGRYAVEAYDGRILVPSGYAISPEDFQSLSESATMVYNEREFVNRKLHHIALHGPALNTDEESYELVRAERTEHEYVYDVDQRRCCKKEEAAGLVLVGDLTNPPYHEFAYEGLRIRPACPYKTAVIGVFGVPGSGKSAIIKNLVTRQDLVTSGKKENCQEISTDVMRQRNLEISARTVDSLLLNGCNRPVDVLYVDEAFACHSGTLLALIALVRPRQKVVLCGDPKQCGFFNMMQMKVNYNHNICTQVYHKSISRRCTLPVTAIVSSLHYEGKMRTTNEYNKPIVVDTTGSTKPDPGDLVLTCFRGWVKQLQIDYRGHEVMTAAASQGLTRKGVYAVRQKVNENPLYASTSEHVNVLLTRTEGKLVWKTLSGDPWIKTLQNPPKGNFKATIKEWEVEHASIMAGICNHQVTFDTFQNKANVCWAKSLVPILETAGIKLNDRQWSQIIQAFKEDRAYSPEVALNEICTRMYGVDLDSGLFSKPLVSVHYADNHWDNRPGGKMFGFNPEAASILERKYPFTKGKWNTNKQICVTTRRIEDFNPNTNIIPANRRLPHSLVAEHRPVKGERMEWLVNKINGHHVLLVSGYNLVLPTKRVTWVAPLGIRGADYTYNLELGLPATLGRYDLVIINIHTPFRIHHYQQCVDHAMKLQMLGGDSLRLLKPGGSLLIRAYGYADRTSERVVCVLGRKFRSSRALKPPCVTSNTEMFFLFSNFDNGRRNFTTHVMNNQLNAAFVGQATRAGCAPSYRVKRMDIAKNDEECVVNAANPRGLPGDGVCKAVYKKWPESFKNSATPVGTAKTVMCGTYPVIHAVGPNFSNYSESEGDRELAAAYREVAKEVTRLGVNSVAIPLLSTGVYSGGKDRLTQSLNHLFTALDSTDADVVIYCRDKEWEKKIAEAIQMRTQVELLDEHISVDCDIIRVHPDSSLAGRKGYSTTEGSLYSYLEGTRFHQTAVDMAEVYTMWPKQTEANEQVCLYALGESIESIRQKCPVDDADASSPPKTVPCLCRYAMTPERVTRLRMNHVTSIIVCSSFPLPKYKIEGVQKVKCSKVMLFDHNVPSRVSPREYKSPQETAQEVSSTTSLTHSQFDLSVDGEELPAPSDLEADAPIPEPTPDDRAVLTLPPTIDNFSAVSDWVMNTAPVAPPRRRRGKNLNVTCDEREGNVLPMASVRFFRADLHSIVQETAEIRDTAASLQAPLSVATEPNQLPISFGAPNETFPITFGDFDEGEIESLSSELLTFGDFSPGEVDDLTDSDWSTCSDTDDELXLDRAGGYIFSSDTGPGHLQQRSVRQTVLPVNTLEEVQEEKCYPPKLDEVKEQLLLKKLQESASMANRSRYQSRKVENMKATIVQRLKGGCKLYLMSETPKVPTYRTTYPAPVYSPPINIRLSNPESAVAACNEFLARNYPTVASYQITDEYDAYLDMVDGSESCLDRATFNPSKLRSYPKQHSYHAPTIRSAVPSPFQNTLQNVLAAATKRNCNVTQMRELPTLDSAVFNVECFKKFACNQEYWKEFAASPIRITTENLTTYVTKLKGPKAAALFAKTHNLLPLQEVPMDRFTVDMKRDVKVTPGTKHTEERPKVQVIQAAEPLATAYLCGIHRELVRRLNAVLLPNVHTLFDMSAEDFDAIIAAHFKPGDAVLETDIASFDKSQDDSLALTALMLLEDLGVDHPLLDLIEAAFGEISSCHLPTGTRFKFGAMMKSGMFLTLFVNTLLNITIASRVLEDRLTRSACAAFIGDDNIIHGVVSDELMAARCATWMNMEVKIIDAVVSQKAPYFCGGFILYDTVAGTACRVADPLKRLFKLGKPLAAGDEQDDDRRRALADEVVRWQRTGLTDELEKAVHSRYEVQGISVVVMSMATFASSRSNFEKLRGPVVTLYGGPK
Compound,target or system,test,test system,setting,how to read,endpoint,value
Cc1ccc(NC2CNC2)cc1NC(=O)C(C)n1cccc2nc(SCc3ccc(F)cc3)nc1-2 (stereo not shown),"Replicase polyprotein 1ab, papain-like protease (rep, Severe acute respiratory syndrome-related coronavirus, UniProt P0C6X7)",enzyme activity,,,,IC50,759 ± 117 nM
CC[C@H](C)[C@H](NC(=O)[C@H](CC(C)C)NC(=O)[C@H](Cc1c[nH]c2ccccc12)NC(=O)[C@H](CCC(N)=O)NC(=O)[C@@H](NC(=O)[C@H](Cc1ccccc1)NC(=O)[C@H](C)NC(=O)[C@H](CCCCNC(=O)COCCOCCNC(=O)COCCOCCNC(=O)CC[C@H](NC(=O)CCCCCCCCCCCCCCCCCCC(=O)O)C(=O)O)NC(=O)[C@H](CCC(N)=O)NC(=O)[C@H](C)NC(=O)[C@@H](NC(=O)[C@H](CCCCN)NC(=O)[C@H](CC(=O)O)NC(=O)[C@H](CC(C)C)NC(=O)C(C)(C)NC(=O)[C@@H](NC(=O)[C@H](CO)NC(=O)[C@H](Cc1ccc(O)cc1)NC(=O)[C@H](CC(=O)O)NC(=O)[C@H](CO)NC(=O)[C@@H](NC(=O)[C@H](Cc1ccccc1)NC(=O)[C@@H](NC(=O)CNC(=O)[C@H](CCC(=O)O)NC(=O)C(C)(C)NC(=O)[C@@H](N)Cc1ccc(O)cc1)[C@@H](C)O)[C@@H](C)O)[C@@H](C)CC)[C@@H](C)CC)C(C)C)C(=O)N[C@@H](C)C(=O)NCC(=O)NCC(=O)N1CCC[C@H]1C(=O)N[C@@H](CO)C(=O)N[C@@H](CO)C(=O)NCC(=O)N[C@@H](C)C(=O)N1CCC[C@H]1C(=O)N1CCC[C@H]1C(=O)N1CCC[C@H]1C(=O)N[C@@H](CO)C(N)=O,,,healthy subjects,all MAD doses,,subjects with back pain,14.3%
CCC(C(=O)Nc1cc(NC2CCOCC2)ccc1C)n1cc(Cl)cc2nc(SCc3ccc(F)cc3)nc1-2 (stereo not shown),"Replicase polyprotein 1ab, papain-like protease (rep, Severe acute respiratory syndrome-related coronavirus, UniProt P0C6X7)",enzyme activity,,,,IC50,350 ± 33 nM
CC[C@H](C)[C@H](NC(=O)[C@H](CCC(=O)O)NC(=O)[C@@H](N)CCC(=O)O)C(=O)N1CCC[C@H]1C(=O)N[C@@H](CC(=O)O)C(=O)N[C@@H](Cc1ccccc1)C(=O)N[C@@H](C)C(=O)N[C@@H](Cc1ccccc1)C(=O)N[C@@H](Cc1ccc(O)cc1)C(=O)O,"HLA class I histocompatibility antigen, B alpha chain, allele B*44:03 (Homo sapiens, UniProt P01889)",biochemical,,,,IC50,0.25 nM
O=c1c(-c2ccccc2)c(O)c2cc(-c3cccc(-c4ccccc4)c3)cnc2n1O,"Resolvase OPG149 (OPG149, Vaccinia virus, UniProt Q80HV3)",,,,,IC50,478 nM
CCC(C(=O)Nc1cc(NC2CCNC2)ccc1C)n1cc(Cl)cc2nc(SCc3ccc(F)cc3)nc1-2 (stereo not shown),"Replicase polyprotein 1ab, papain-like protease (rep, Middle East respiratory syndrome-related coronavirus, UniProt K9N7C7)","enzyme activity, inhibitor",,,,IC50,> 100000 nM
C=CS(=O)(=O)c1nc(C)cs1,"Polyprotein P1234, nsP2 protease domain (Chikungunya virus, UniProt Q5XXP4)","protease activity, inhibitor, FRET",,"90 min, 30 min preincubation",,IC50,22000 ± 4000 nM
CNC(=O)[C@@H](NC(=O)[C@H](CC(C)C)[C@H](O)C(=O)NO)C(C)(C)C,Daboia russelii venom proteases (SVMP),"protease activity, inhibitor",KL population,"0.1 µM, added: azocasein substrate",baseline: venom alone,remaining activity,74.5% and 76.7% and 74.7%
Cn1cnc(Cn2c(=O)[nH]/c(=N\c3cc4cn(C)nc4cc3Cl)n(Cc3cc(F)c(F)cc3F)c2=O)n1,"Cytochrome P450 1A2 (CYP1A2, Homo sapiens, UniProt P05177)","enzyme activity, inhibitor",human liver microsomes,"30 min preincubation, pH 7.4, preincubation without NADPH, added: phenacetin 90 µM",,IC50,> 100000 nM
Cn1cnc(Cn2c(=O)[nH]/c(=N\c3cc4cn(C)nc4cc3Cl)n(Cc3cc(F)c(F)cc3F)c2=O)n1,,,"human, normal renal function","oral, 375 mg, treatment-related dry mouth, Mild severity",,patients with adverse event,0%
CCC(CC)[C@H](NC(C)=O)[C@@H]1[C@H](O)[C@@H](C(=O)O)C[C@H]1N=C(N)N,"Neuraminidase (Influenza A virus, UniProt L0MUX9)","enzyme activity, inhibitor","swine influenza A virus, N2 subtypes average",,,IC50,0.14 nM
O=C(N1CCC2(CC1)C[C@@H](CN1CCCCS1(=O)=O)CCO2)C1(c2cc(F)cc(F)c2)CCCC1,"Polyprotein P1234, nsP2 (Chikungunya virus, UniProt Q8JUX6)","nsP2 ATPase activity, inhibitor, ADP-Glo",,,,IC50,46000 nM
Nc1ncnc2c([C@@H]3N[C@H](CO)[C@@H](O)[C@H]3O)c[nH]c12,Nipah henipavirus,viral replication,"HeLa, Malaysia",0.8 µM,,inhibition,15.1%
